Assay results of several laboratories.
Every numbered part comes from another study and shows a few of its results, in no order. Changes are numbered by the printed parent chain.

Study 1 — method: RNA Bind-n-Seq; molecule type: RNA; sample: in vitro; tested at: not given; reference: input RNA pool; reading: higher = stronger binding
Target: RING finger protein unkempt homolog, zinc fingers 1-6, GST-SBP tag (UNK, Homo sapiens, UniProt Q9C0B0, residues 30-357)
Notes: RNA with constant flanks, human and mouse sites, ends assumed
Construct (chain): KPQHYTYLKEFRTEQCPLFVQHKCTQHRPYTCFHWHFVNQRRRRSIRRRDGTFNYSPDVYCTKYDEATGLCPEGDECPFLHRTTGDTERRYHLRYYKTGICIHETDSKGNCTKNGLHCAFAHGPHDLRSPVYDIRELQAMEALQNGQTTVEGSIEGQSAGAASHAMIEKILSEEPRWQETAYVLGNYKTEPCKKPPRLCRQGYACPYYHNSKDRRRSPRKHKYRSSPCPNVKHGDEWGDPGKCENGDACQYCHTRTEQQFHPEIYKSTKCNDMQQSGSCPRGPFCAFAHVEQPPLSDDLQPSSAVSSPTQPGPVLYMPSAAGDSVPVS
Strand | bound/input enrichment [ratio]
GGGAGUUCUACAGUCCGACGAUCCUCCUCUUUCUUUCCUUUCUUUCCUCCCUUUUUCCCGUCUGACCCCAAACGUUAUUGUCCAAACAUGACUGGACAGCAGCUUUUGUUUCUUGACCCUGUAAUAUGACAGUCUGCUAAUAUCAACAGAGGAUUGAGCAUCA | 0.809
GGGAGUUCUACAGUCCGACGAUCGAGCUGUUAAGUGAGGAAAACAAGGAAAAUGGGAUAAUUAAAACUGUGAAUGAAGACGUAGAAGAGAUGGAAAUUGAUGAACAAACAAAGGUCAUAGUAAAAGACAGACUUUUGGGGAUACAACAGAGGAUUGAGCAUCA | 1.09
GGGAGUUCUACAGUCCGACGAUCUUUGUUUCCAGGGACAAAUUAAAUUUGUAUGAUUACCCAAAAAAGGGUCUCAGUUUACAGAUGCUAACUCUAUAUAAAGGAAUGUGGAAAAACUCAGUUCUUAAGUUACAAGAUUAAAAACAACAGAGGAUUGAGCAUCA | 0.147
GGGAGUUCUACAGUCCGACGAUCAAAAAGGGACACCCAAGCUAUGCACCACCCAAACGCAUGCGUCGUAAAACUGAAUUCUCUUCCACGGCAAAGGCUAAAGCCCGUUUCUUUGGAAAACGAGAUUUUAGGAGCAGGCUUCUCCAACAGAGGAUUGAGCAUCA | 0.176
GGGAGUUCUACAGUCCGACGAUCCUUGUACCCAACACAAAAAAUGGAAACAUAUACACUCCCCUACUUACCAUUGCCUACAGUGACAUUGACAUCAAAAAUGCUCAUAGCCAGUCUGCGAAGAUUUCCUUCUCAGUGAAGUAUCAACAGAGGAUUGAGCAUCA | 0.285
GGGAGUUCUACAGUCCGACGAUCCCAGGGGGUGAUCAAGUACAUGGGGCCGGCAGGAGCAAAGAAUCUGCAGAGUGUUGUGCUUAGUAAAAUGAAUUUUGAAUCUUUUGUAAAAGAUCUUCUUCUGGUUCGUCAGUAUAGAGUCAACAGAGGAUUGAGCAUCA | 4.35
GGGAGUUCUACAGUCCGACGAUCAAAACAGAAUCAAAAAUAAAAUAAAAAUCAAUGCGGUCUCUUUGCAGAAUGUUUUGCUUGAUGUUUAAAAAAGUACCUUGGAUCUUAUUUUGUAAAUAUUUACAUUUUUGUUAAAAAAUACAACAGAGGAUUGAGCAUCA | 0.377
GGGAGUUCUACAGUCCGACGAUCGAUGUUACCCAGGAGGAGCUCGGUGGUGCCAAGACCCACACCACCAUGUCAGGUGUGGCCCACAGAGCUUUUGAAAAUGAUGUUGAUGCCUUGUGUAAUCUCCGGGAUUUCUUCAACUACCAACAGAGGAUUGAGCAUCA | 0.0961

Study 2 — method: protein-binding microarray; molecule type: double-stranded DNA, one strand shown; sample: in vitro; tested at: 250 nM; notes: 60-bp whole probe; with: salmon DNA 0.4 mg/ml; reference: random background probes; reading: higher = stronger binding; constant ends, left off below: GCCTAGCAC … GTCTTGATTCGCTTGACGCTGCTG
Target: Interferon regulatory factor 5, full length, phosphomimetic (IRF5, Homo sapiens, UniProt Q13568-2, residues 1-514, K96S/S451D/S453D/S456D/S462D)
Strand | log fluorescence
TCACCTTTTCACTTTACACTGTGCTAG | 1.66 z-score
TTAGGTCTCGATCTCGGTTAGTGCTAG | 0.61 z-score
TAAATTCTGAAAATGGAAACGTGCTAG | 0.63 z-score
TTAGGGCTGCTTCTCCTTTAGTGCTAG | -0.201 z-score
TGTTACTAGGGTTACATAATGTGCTAG | 0.0637 z-score
GACGGAATGCTACTGCTGACGTGCTAG | -0.595 z-score
TTAGATTTCAGACTGGAATAGTGCTAG | 0.341 z-score
TCATGTTTGTGTGTGTAACTGTGCTAG | 0.221 z-score
TCAGAATTTACTTTCTAACTGTGCTAG | 1.74 z-score
TTATATTTCAGTCTCGATTAGTGCTAG | 3.37 z-score
CTGCCTGTCCATTCCTTCCAGTGCTAG | -0.0907 z-score
TTATGTTTCCTTTTCCTTTAGTGCTAG | 2.33 z-score
GACGGACCGGGGTTTCGGGACGTGCTA | 1.17 z-score
TCAATCTTCATTGTCATACTGTGCTAG | 0.537 z-score
GACGGACTGGGGTTGCGGGACGTGCTA | -0.378 z-score
TTAGGTATCGGGACGGGGTTAGTGCTA | 2.29 z-score
TTAGGTATGGGGACTGGGTTAGTGCTA | 0.0239 z-score
GACGGTATCCTACTGCTGAAGTGCTAG | -0.049 z-score
TTAGGACGGGGGTTTCGGTTAGTGCTA | 8.03 z-score

Study 3 — cell line: yeast with cyclin B3-Cln2 chimera; read-out: cell growth; mode: binder; method: competitive growth deep sequencing; molecule type: peptide; tested at: concentration not given; notes: peptide tiling library; reading: direction not given
Molecule | growth enrichment score
PKNAKRNLSSEFAN | 0.403
PKRAKRKLYTSEISSP | -0.968
SNFFDVIKQLFSDEKN | 1.51
GTPKRCLDLSNLSSGE | -0.324
IFNKPECGRVQRAIFQ | -1.41
ASVLSKPIFCFVKD | 0.547
TQERKQIHCLSEDELS | 0.292
DWDTVERQEEEAPSWD | 0.456

Study 4 — target: CEBPA, bZIP domain (human); method: DHFR protein complementation; sample: yeast; reference: wild-type JUN-FOS pair; reading: higher = stronger binding
Notes: single substitutions, most at no-binding floor
Starting sequence: JUN, bZIP domain (human); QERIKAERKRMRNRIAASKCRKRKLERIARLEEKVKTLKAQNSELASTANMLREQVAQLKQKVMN; partner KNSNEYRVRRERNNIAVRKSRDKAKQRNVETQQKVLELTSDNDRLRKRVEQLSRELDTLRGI
Substitution | binding fitness [natural log]
E44N | -1.47
Q41L | -1.47
L52Q | -1.48
L59G | -1.35
R53A | -1.27
E32W | -1.49
N42T | -1.51
L45H | -1.57
L52K | -1.57
K39C | -1.49
S43W | -1.43
L38F | -1.55
R53H | -1.35
E54Y | -1.38
K36N | -1.43
L31K | -1.53
E44D | -1.44
R30H | -1.48
R30M | -1.52
E32C | -1.37
V56Q | -1.54
E32V | -1.38
A49W | -1.39
A49V | -1.36
T48A | -1.46

Study 5 — method: universal PBM; molecule type: double-stranded DNA, one strand shown; sample: in vitro; tested at: 600 nM; reading: higher = stronger binding
Target: Sal-like protein 4, full length isoform A (SALL4, Homo sapiens, UniProt Q9UJQ4, residues 1-1053)
Chain of UniProt Q9UJQ4 (whole entry, looked up): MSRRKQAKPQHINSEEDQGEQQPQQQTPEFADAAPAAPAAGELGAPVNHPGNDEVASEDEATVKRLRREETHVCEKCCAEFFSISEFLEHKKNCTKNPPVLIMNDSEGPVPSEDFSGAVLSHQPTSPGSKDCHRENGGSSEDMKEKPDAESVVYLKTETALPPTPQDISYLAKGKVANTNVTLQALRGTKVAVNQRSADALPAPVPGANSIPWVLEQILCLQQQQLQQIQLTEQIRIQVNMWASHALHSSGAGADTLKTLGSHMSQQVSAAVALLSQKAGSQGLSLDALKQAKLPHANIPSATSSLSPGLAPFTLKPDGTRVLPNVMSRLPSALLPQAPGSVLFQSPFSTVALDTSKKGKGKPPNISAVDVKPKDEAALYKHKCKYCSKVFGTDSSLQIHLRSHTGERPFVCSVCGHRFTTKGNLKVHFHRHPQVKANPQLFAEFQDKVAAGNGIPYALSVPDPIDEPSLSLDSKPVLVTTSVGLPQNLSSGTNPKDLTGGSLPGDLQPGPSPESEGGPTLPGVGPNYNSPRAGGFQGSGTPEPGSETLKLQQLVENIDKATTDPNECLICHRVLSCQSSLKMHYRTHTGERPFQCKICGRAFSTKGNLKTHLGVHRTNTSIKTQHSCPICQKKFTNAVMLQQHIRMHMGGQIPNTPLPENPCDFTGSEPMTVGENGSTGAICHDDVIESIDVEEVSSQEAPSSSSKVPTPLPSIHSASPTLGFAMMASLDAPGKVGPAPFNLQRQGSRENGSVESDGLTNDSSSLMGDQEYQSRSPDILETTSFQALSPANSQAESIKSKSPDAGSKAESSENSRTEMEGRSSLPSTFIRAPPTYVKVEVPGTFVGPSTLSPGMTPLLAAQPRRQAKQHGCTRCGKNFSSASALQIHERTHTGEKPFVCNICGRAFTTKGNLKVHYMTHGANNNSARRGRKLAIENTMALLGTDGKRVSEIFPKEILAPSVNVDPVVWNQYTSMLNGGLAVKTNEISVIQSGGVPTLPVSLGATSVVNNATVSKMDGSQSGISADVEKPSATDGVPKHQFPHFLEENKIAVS
Notes: 8-mer, flanks averaged, mean of replicates
Strand | E-score
AGCCCTAT | -0.0679
GACCCAAA | -0.0253
GATCAGAC | -0.0682
AGTATGAC | 0.209
CCGTTACA | 0.0896
GCATCAAC | -0.0404
CTCCAGCA | -0.0641
GAAATCTA | 0.211
TCCCTTCA | -0.0118
GTTATTAA | 0.439
CATCGGTC | -0.127
AGAGTAAA | 0.139
CTGCGTCA | -0.0438
CTTTATGA | 0.338
AACCTGAA | -0.0264
ATGGCTAC | 0.13
CGAGAGAG | -0.095
CCTATTCC | -0.00102
ACTAATTC | 0.228
ACTTTCTG | 0.0475
GAGTGGGA | -0.117
CGATTTAA | 0.203
CCTTGGCA | -0.133
GCCCAACC | -0.07
TAAGCGTA | 0.069

Excerpt of the above (study 5):
Strand | E-score
CTCCAGCA | -0.0641
AGAGTAAA | 0.139
CCTATTCC | -0.00102
GACCCAAA | -0.0253
GTTATTAA | 0.439
CGAGAGAG | -0.095
GATCAGAC | -0.0682
GAGTGGGA | -0.117
CGATTTAA | 0.203
TAAGCGTA | 0.069
